# Assay results gathered from unrelated publications.
# Every numbered part comes from another study and shows a few of its results, in no order. Positions count from the first letter of the parent shown.

# Series 1 — method: protein binding microarray; form: double-stranded DNA, one strand shown; matrix: in vitro; tested at: not given; relative to: not given; reading: higher = stronger binding
# Target: Histone acetyltransferase KAT6A, both winged helices, GST fusion (KAT6A, Homo sapiens, UniProt Q92794, residues 1-181)
# Notes: 8-mer, flanks averaged, mean of 2 arrays, mostly near background
# Residues (chain): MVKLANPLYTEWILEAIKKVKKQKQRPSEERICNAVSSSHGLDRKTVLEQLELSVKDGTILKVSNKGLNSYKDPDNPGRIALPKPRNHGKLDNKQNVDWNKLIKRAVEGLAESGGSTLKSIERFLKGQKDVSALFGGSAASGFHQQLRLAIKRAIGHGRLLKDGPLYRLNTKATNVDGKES
Oligonucleotide,E-score
ACGACCCG,0.201
GCCGCGGA,0.379
ATATTGTG,-0.0684
TCACCACA,-0.135
CGATCCCC,-0.0734
GTTTGTTA,0.0147
AAGACAGC,-0.025
CCGGGTAC,0.189
CCCGGCTA,0.173
GAGTATCC,-0.11
GACCCAAA,-0.125
ACGCAATA,0.199
CGCGCAAA,0.231
GTGTCAAA,0.0242
ATTGAACA,-0.00068
AGAGATGG,-0.229
CAGTTCTA,-0.0256
TACCCCTA,-0.252
AAGGTCCA,-0.137
CTGTGCTC,-0.0718
ACTAGAGG,-0.141
AAATTACA,0.00579
CCCAACCC,-0.144
ACTAACCA,-0.114

# Series 2 — method: RNA Bind-n-Seq; form: RNA; matrix: in vitro; tested at: 365 nM; relative to: no-protein control; reading: higher = stronger binding
# Target: RNA binding protein fox-1 homolog 2, RRM domain, GST-SBP tag (RBFOX2, Homo sapiens, UniProt O43251-10, residues 100-194)
# Notes: natural RNA segment, single round, ends assumed
# Constant ends, left off below: GGGAGUUCUACAGUCCGACGAUC … UGGAAUUCUCGGGUGCCAA
# Residues (chain): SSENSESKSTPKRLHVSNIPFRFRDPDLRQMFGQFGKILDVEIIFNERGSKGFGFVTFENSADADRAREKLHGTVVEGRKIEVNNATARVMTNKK
Oligonucleotide,RBNS enrichment (R)
CAAGUAAUAUUGCUCCUUUAAAAGGUGUGUUUUUAUUUCUGGUGAUGUCAGGGGCAACGGGGUAUCUUAGAAGCCUUAAAUGAGAGCUAAUAUAAUCCAGACAGCAAUGG,0.317
CUUUGACCACGAAGAAACGGAGACUCAGAGAGUUUGUAUCCUAUGUGUAAGAUCACACAGUUGUCAGAGUCAGGAUUCAAAUCUAGUUCUAACUCCAAAGCUCUCCACAC,0.269
AAUGCCUAGGUGAGCCAGUGGUUCUCAAAGUAGGGUUCCCCAGGCACUGUCAGAAAUACAGUCAUACCCCAGGUUAAAUCUCGAAGCAGAGAUUUGGGGGCUUCAUUAAC,0.32
UAGAACUAUCCUUGUUCGAUAGCAUAGGAAAAUGUUCUGGUGAUUGUCAGGGUCUCCUAAUAUUUAUCUCAAUUCUUUUAUAAGUCUAUGGAAAUUAUUUAAUUAUUUUA,1.44
AAUGGUUUGUUAGUUGCCAUUACAACUUUGUCUGGGUAGAGUUUUUGAGUUUUUGCAGUUCAGUAUCCCUCUGUCUAUUCACACUUCGUGUUAGUGGUAACUCAGUUUGU,0.657
UCAACAGGCCCUGGAGCCAGGACUGGAGUCUUGGCAGCUGAUGAGCAGCACCUUGCCGGCCAGGAGGAGCUGAUGCUGACGAUCUCCCCAACAUCUGAAGGCUUAAAGAA,0.988
UUAGAAGCCAGAGCUCUCCUCCAGGCUCCUUCCCAGUGCCUAGAGGUGCUAUAGGAAACAUAGAUCCAGCCAGGGGCUUCCCUAAAGCAGUGCAGCACCGGCCCAGGGCA,0.751
CUGCUGCUCCAUGCUUUGGCCAAUAAGAUGGGUCUGAAGUUUCAGAGGUACCGACUUGUUCCCUAUGGAAAUCAUUCCUAUCUGGAGUCUCUGACAGACAAAUCUAAGGA,0.232
UGAUGAAGUGAAAAUGUAUAUCUGACUAGUGGGAAACUUCAUGGGUUUCCUCAUCUGUCAUGUCGAUGAUUAUAUAUGGAUACAUUUACAAAAAUAAAAAGCGGGAAUUU,0.694
GCUAGUAGUGUUCUAGAUUAUGUCUUUCCAAAGCGCUGAGGCUGUGCACCUAUUCUGUAGUUGCAGCUGAUGCCUGAAUGUAUCCUAGCUGACAAAUUAUUGAUUAAUAA,0.212
CAGUGGGCAGACGCCUGGGCACCCCUUGGGCCCUGCCCAGCAUGGCCAUGGCGCAGGCUCUCGAACCCGCAUGGCUUUCCCAGGCCUGGUGAUUCUGCUCUCCAGGGACG,2.79
CCAAGUGACCUUGUCCCCAGCUCCCUCCUCCCAGGCUGGUGUGAGUGUGCGUGCGUUUGUGCCGAGCUUCUAUUUCAUAUUGCAAAUAUAAAUAAAGGAAGGCAGUUUAC,0.903

# Series 3 — method: universal PBM; form: double-stranded DNA, one strand shown; matrix: in vitro; tested at: 600 nM; reading: higher = stronger binding
# Target: Sal-like protein 4, full length isoform A (SALL4, Homo sapiens, UniProt Q9UJQ4, residues 1-1053)
# Sequence of UniProt Q9UJQ4 (whole entry, looked up): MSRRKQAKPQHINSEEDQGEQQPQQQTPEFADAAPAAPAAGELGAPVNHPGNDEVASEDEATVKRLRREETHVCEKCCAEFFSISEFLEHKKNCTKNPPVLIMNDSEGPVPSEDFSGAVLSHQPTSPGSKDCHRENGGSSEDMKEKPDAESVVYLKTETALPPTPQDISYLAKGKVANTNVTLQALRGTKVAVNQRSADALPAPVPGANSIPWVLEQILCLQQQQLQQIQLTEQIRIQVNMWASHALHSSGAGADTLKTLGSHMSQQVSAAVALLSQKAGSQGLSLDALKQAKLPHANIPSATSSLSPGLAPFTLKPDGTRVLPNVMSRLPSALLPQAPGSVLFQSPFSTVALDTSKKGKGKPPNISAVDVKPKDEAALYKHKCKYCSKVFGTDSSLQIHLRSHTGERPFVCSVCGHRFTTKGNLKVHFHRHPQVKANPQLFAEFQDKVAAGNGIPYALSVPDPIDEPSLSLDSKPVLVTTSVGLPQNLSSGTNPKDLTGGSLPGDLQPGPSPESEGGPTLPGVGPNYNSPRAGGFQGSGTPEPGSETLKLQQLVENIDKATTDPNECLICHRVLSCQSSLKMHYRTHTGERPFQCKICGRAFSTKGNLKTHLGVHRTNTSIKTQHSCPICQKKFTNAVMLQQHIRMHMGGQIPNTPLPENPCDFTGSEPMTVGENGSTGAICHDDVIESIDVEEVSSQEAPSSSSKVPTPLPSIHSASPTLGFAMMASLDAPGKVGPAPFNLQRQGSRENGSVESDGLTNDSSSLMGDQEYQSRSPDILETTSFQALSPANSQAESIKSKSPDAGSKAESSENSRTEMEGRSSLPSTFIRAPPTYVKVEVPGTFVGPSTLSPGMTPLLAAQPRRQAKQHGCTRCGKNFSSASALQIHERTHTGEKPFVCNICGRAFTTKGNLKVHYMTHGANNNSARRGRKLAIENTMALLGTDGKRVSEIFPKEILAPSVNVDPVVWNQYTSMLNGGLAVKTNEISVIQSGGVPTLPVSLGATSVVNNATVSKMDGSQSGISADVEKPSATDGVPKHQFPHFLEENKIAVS
# Notes: 8-mer, flanks averaged, mean of replicates
Oligonucleotide,E-score
CTTTGGTC,0.00976
TATGGCAA,0.213
ATTAAATA,0.438
GGCTGTTA,0.0765
CATCAATA,0.329
ACGAGTGA,-0.143
TAAGGCAA,0.0644
CCATGAAA,0.2
CTGTCCAA,0.0746
ATCCGACC,-0.158
AGAGCCCG,-0.277
CAGCCCAG,-0.376
CACGGAAA,0.006
CCAAATAG,0.0378
AAACGCAC,0.0415
TAATACAA,0.309

# Series 4 — target: DDIT3, bZIP domain (human); method: DHFR protein complementation; matrix: yeast; relative to: wild-type JUN-FOS pair; reading: higher = stronger binding
# Notes: single substitutions, most at no-binding floor
# Starting sequence: JUN, bZIP domain (human); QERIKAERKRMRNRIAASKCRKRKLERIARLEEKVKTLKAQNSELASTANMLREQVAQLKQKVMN; partner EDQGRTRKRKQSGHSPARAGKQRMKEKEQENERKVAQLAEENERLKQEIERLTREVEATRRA
Substitution,binding fitness
M51Q,0.0606 natural log
L31P,-1.2 natural log
Q58R,0.0167 natural log
Q55T,0.0297 natural log
K39V,0.00751 natural log
N42S,-1.06 natural log
V35Y,0.0834 natural log
R30K,-0.00174 natural log
L52R,-1.16 natural log
T48I,0.0183 natural log
A57N,-0.0258 natural log
A29V,-0.276 natural log
N42T,-1.27 natural log
Q55P,-1.16 natural log
E44N,-0.166 natural log
A46S,0.016 natural log
R30T,0.133 natural log
M51N,0.0295 natural log
A46K,0.129 natural log
L45I,-1.46 natural log
Q55V,-0.0802 natural log
S43T,0.144 natural log
E33G,-0.283 natural log
V56K,-0.34 natural log
T48G,-1.12 natural log

# Series 5 — target: CCNF, cyclin fold, Cln2 fusion (human); method: yeast growth competition, sequencing; matrix: yeast; notes: strong parent motif; relative to: not given; reading: higher = stronger binding
# Starting sequence: PKN2 docking peptide (human); VSAVRKLDFSDTM
Substitution,normalised enrichment score
V4M,6.97
S2V,6.95
L7H,-0.0298
T12F,7.33
F9V,1.5
F9A,-0.0688
V4D,2.29
D11Y,7.6
D8M,8.35
F9W,5.6
S2D,6.42
S10N,7.13
K6N,4.98
V4W,5.78
D11Q,7.09
T12R,7.7
F9D,-0.0476
V4A,7.26
K6P,2.25
D8S,6.62
A3K,3.03
D11T,7.36

# Series 6 — method: competition protein-binding microarray; form: double-stranded DNA, one strand shown; matrix: in vitro; tested at: 2 µM; added: Pho4 competitor, 0.05 µM; reading: higher = stronger binding; constant ends, left off below: … GTCTTGATTCGCTTGACGCTGCTG
# Target: Centromere-binding protein 1, full length, His-tagged (CBF1, Saccharomyces cerevisiae, UniProt P17106, residues 1-351)
# Sequence of UniProt P17106 (whole entry, looked up): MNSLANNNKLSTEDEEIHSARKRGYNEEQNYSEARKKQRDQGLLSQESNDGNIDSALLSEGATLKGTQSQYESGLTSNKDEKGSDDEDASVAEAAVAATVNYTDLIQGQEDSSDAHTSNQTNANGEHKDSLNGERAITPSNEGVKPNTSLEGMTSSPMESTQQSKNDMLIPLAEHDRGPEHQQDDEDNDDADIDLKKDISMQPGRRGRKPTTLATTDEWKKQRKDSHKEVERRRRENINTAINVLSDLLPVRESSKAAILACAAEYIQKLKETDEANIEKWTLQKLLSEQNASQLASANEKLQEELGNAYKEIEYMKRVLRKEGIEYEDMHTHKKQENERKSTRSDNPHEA
# Notes: whole 60-bp probe, lowest competitor level
Oligonucleotide,fluorescence intensity [a.u.]
CTAACGAAGGTTTTTCACGTGAGGTACAAGCCAAGT,848
ATGGTTAGAAAAAGAAACGTGCAATCGCCCGTCTGG,108
TTAAGTGGGCTTACCCACGCTTTCGGTGCCTATGGT,49.2
TGCGGTGTAACGGTCCCCGTGCGGAAGTCAACGGAA,97.6
AGCTGATGCAATTATCCAATAATTTCTTTCACCACC,102
CCTAGGACTTTGAAGGGCGTGCTAAGTGGGGAGCCG,62.7
ATATCTCGCACTTCTCTCGTGATGGTCATTGAGTGC,187
GTCTTGTCTCATTGAAGGGTGGGTGTCCCCACTTCA,83.7
AGAAGGTCAAGGAATCTCGTGATGGCATCAAACTAG,324
CGTCCTAGTGATTGCTTCGTGGGTGCCATGAGGAAG,91.5
TATTGAAGGTACCATCACATGCTTACTCACTTTGCG,377
TTCTTGTAGTCAACGTACATGATGTTGTCGTCCCAA,72
CTAACGAAGGTTTGACATGTGGGTGACAAGCCAAGT,102
GCCTTACATATTTGTCATGCTTTGACTATTGCTATC,140
AATCTCGAGTAGGTGCACGTGGTACCTACCTCGAGA,1820
AGGTTGCCAGGGCTGCACGAGGAGTGGATTTCTGCT,85.5
CTTTCCCGATCTTGTCACGTAACTTTAGCACATTTG,131
TGCGCAACAACTTTTCACGTGCCCTTATGTCTAGAA,1890
TATTGGGCTATTTAGCACGTGATGGTAAAGTATATT,5810
GTCTTGTCTCATTGTTAGGTGGGTGTCCCCACTTCA,100
GGAGCAGGACTCTGCCGCGTGTCCTTCCCGGCTCCG,69.6
CCAGGCTTAGATTTTCATGTGAAAAGATAATGTGTA,90.3
CGGGGTTAAGTTTGTCGCGTGGGTGGCTTGCAGCAG,105
CCCTTCCAAAACTATCACATGTAACCATGATGAACC,433
CGATTGGAAACCCGTCACGTGGAAGTGAGTCTATTA,3280

# Repeated from above (series 3):
Oligonucleotide,E-score
TAAGGCAA,0.0644
CTTTGGTC,0.00976
GGCTGTTA,0.0765
AAACGCAC,0.0415
CCAAATAG,0.0378
CTGTCCAA,0.0746
ATTAAATA,0.438
TAATACAA,0.309
ATCCGACC,-0.158
ACGAGTGA,-0.143
CACGGAAA,0.006
